# Measured values collected from several papers.
# Every numbered part comes from another study and shows a few of its results, in no order.

# Set 1
# Target: Interferon regulatory factor 3, full length, phosphomimetic (IRF3, Homo sapiens, UniProt Q14653, residues 1-427, S386D/S396D/S398D/S402D/T404D/S405D)
# Chain of UniProt Q14653 (whole entry, unmodified, looked up): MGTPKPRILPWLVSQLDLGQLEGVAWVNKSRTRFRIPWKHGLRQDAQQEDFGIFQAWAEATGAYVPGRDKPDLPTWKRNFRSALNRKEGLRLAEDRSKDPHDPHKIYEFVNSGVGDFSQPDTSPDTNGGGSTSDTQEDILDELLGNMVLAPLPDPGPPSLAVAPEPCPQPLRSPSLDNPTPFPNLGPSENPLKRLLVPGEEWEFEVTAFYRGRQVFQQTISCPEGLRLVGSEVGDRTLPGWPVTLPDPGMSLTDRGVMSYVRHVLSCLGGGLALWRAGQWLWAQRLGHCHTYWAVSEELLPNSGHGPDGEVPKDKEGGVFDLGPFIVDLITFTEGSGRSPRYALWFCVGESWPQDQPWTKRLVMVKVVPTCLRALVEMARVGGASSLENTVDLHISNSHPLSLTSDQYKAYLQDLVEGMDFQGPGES
# Method: protein-binding microarray
# Form: double-stranded DNA, one strand shown
# Medium: in vitro
# Concentration: 2540 nM top
# Notes: 60-bp whole probe
# Together with: salmon DNA 0.4 mg/ml
# Relative to: random background probes
# Reading: higher = stronger binding
Strand,fitted relative affinity [z-score]
GCCTAGCACTTAGGTATCCTTTTCATTTAGTGCTAGGTCTTGATTCGCTTGACGCTGCTG,7.87
GCCTAGCACGAGAAAATGATTTTTTTCATGTGCTAGGTCTTGATTCGCTTGACGCTGCTG,-0.00376
GCCTAGCACTCAAAAATAGAAACTCGTACTGTGCTAGTCTTGATTCGCTTGACGCTGCTG,-0.0336
GCCTAGCACAGATTTATCAAATGTGGGATTGTGCTAGTCTTGATTCGCTTGACGCTGCTG,-0.0969

# Set 2
# Target: Ras GTPase-activating protein-binding protein 1, full length (G3BP1, Homo sapiens, UniProt Q13283)
# Chain of UniProt Q13283 (whole entry, looked up): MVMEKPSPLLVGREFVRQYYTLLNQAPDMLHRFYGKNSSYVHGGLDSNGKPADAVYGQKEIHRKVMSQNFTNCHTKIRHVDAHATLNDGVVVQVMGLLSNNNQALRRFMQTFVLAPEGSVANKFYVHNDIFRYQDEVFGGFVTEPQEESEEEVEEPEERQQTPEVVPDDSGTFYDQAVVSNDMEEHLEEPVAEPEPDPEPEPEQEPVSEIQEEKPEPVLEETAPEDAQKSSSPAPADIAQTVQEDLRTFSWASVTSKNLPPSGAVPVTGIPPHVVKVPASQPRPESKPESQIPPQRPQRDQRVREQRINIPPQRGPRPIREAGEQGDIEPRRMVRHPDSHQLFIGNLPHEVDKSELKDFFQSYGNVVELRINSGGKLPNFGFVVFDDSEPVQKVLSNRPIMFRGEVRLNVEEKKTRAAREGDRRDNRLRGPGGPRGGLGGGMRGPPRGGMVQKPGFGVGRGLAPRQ
# Method: RNA Bind-n-Seq
# Form: RNA
# Medium: in vitro
# Concentration: 200 nM
# Notes: whole 134-nt RNA, ends assumed
# Together with: 150 mM LiCl
# Relative to: input library
# Reading: higher = stronger binding
# Each molecule: 7-deaza-guanosine replaces G
# All sequences stand within: GGGAGUUCUACAGUCCGACGAUC … UGGAAUUCUCGGGUGUCAAGG
Strand,log2 enrichment
GUCCUGUGCUACACAUCGUAUGUACCGAAUCGGGGUUUUUUUGGGGUGGGGUUUGGGGAAAGUAUUAUGUUACGCCGUUCGGAUCUGCAC,0.105
AAGUCCUGUGCUACACAUCGUAUGUACCGAAUCGGGGUUUUGGUUUUGGGUUUUGGAAAGUAUUAUGUUACGCCGUUCGGAUCUGCACUU,-0.483
UAACUUUAGAGGAGGAUCUGAUGGAUAUGGCAGUGGACGUGGAUUUGGGGAUGGCUAUAAUGGGUAUGUAGGAGGACCUGGAGGUGGCAA,-0.00218
UCCUGUGCUACACAUCGUAUGUACCGAAUCGGGAAAAAGGGGAAAAAGGGAAAAAGGGGAAAGUAUUAUGUUACGCCGUUCGGAUCUGCA,-0.264
UCCUCAAGUCCUGUGCUACACAUCGUAUGUACCGAAUCGGUGGAGGAAAGGAAAGUAUUAUGUUACGCCGUUCGGAUCUGCACUUCCAGC,-0.0454

# Set 3
# Target: Histone acetyltransferase KAT6A, winged helix 2, GST fusion (KAT6A, Homo sapiens, UniProt Q92794, residues 85-181)
# Method: protein binding microarray
# Form: double-stranded DNA, one strand shown
# Medium: in vitro
# Concentration: not given
# Notes: 8-mer, flanks averaged, mean of 2 arrays, mostly near background
# Relative to: not given
# Reading: higher = stronger binding
# Construct (chain): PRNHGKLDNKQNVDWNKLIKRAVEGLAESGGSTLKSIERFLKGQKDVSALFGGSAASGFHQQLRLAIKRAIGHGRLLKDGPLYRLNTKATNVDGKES
Strand,E-score
ATAGAGCC,-0.062
AGTTACCC,-0.0327
CGTTCGCA,0.0303
ACTCCGCG,0.0509

# Mixed results
Substance,target,assay,test system,setting,scale,endpoint,value
"PhoQ, residues 284 288 289 292 302 303 NLCILV","PhoP, residues 12 14 15 18 19 LWHVM (Escherichia coli, UniProt P23836)","Sort-seq, refers to: YFP reporter",E. coli,"PhoQ-PhoP variant library, together with: 10 µM Mg2+","relative to: high Mg2+ state, higher = stronger signaling",fold induction,22.8
